Published values of several laboratories.
Numbered parts are unrelated; each lists some results of a single study.
Chain of UniProt Q9NYY3 (whole entry, looked up): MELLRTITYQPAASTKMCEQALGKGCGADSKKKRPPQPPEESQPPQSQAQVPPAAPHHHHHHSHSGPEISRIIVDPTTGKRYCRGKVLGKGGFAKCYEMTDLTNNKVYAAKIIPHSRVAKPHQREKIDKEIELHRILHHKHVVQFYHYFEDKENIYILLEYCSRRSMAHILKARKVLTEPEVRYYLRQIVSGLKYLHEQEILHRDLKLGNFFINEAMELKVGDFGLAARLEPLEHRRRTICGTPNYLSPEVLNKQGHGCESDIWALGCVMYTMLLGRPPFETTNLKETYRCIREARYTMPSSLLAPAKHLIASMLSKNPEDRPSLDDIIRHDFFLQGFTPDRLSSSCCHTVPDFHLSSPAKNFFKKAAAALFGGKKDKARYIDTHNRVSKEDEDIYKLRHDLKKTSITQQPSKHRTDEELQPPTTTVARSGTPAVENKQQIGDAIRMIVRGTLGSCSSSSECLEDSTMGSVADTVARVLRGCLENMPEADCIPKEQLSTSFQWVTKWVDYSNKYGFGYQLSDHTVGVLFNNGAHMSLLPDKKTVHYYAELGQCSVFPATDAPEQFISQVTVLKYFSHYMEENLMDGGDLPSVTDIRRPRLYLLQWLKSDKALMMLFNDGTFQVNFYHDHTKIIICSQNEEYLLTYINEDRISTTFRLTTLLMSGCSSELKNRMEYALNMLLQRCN

Series 1
Target: Sox, HMG box (Pigoraptor chileana)
Method: Spec-seq
Molecule type: double-stranded DNA, one strand shown
Sample: in vitro
Tested at: not given
Setting: whole probe, mean of replicates
Baseline: not given
Reading: lower = stronger binding
All sequences stand within: GAGTCGTCTCGTCAGCAC … CCGTAGAGCACTCAGGTC
Residues (chain): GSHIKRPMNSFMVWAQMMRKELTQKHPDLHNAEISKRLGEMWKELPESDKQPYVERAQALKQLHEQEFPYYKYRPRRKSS
`CATAGAT` — result for “relative binding energy”: -0.32 ln ratio.
`CATCTTG` — result for “relative binding energy”: 0.323 ln ratio.
`TTAGGTT`: “relative binding energy” 0.573 ln ratio.
`AGTAGTT` — result for “relative binding energy”: -0.983 ln ratio.
`ATTCGTT`: “relative binding energy” 0.33 ln ratio.
`CATGGTA`: “relative binding energy” 0.496 ln ratio.
`CATAAGC`: “relative binding energy” -0.0225 ln ratio.
Under “relative binding energy”, `CATCTAA` is recorded as 0.559 ln ratio.

Series 2
Target: Centromere-binding protein 1, full length, His-tagged (CBF1, Saccharomyces cerevisiae, UniProt P17106, residues 1-351)
Chain of UniProt P17106 (whole entry, looked up): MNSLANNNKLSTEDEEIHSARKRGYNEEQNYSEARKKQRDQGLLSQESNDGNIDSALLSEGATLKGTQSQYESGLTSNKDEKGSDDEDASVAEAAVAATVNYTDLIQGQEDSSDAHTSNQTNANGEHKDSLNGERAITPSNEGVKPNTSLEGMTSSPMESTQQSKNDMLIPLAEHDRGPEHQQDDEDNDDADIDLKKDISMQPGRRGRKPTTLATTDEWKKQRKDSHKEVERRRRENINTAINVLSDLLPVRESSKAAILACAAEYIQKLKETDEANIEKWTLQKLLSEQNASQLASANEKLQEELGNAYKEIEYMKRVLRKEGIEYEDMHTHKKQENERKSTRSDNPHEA
Method: competition protein-binding microarray
Molecule type: double-stranded DNA, one strand shown
Sample: in vitro
Tested at: 2 µM
Setting: whole 60-bp probe, lowest competitor level
Together with: Pho4 competitor, 0.05 µM
Reading: higher = stronger binding
The fluorescence intensity of `TGCGCAACAACTTGCGTGGTGGGTGTATGTCTAGAAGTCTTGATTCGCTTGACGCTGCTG` is reported as 73.5 a.u.
`GTCTTGTCTCATTGGTTCGTGGGTGTCCCCACTTCAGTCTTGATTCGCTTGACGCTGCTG` gave a fluorescence intensity of 87.4 a.u.
`CGGGGTTAAGTTTGCGTCGTGGGTGGCTTGCAGCAGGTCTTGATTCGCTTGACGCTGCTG` has a fluorescence intensity of 69.3 a.u.
With `TGTCCAAGTCTGATCCATGTGTCTTGACCTATATGTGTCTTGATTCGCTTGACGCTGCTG` the fluorescence intensity was 78.9 a.u.
`GCTGCATAAAACAACCATGTGGAGTTTTTACTGTATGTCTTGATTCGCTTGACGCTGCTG` has a fluorescence intensity of 111 a.u.
For `CGGGGTTAAGTTTGTCACTACACTTGCTTGCAGCAGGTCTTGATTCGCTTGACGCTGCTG`, the fluorescence intensity was 74.8 a.u.
With `CTAACGAAGGTTTTTCACGTGGGGTACAAGCCAAGTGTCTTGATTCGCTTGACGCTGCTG` the fluorescence intensity was 623 a.u.
`TGCGCAACAACTTGTCACAGAACTTTATGTCTAGAAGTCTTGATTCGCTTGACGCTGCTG` gave a fluorescence intensity of 75.2 a.u.

Single results of other studies
With N#CC(c1ccnc(NCCc2cccnc2)n1)c1nc2ccccc2s1 (stereo not drawn) the remaining activity was 95.8% (Serine/threonine-protein kinase PLK2 (PLK2, Homo sapiens, UniProt Q9NYY3); enzyme activity, inhibitor; 0.5 µM; baseline: control).
`PhoQ, residues 284 288 289 292 302 303 ALSMDL` has a fold induction of 0.924 (PhoP, residues 12 14 15 18 19 AQCLL (Escherichia coli, UniProt P23836); Sort-seq, measured: YFP reporter; E. coli; PhoQ-PhoP variant library, together with: 10 µM Mg2+; baseline: high Mg2+ state, higher = stronger signaling).

Some of these lines once more (series 1):
`ATTCGTT`: “relative binding energy” 0.33 ln ratio.
`CATGGTA`: “relative binding energy” 0.496 ln ratio.
